Published values from different studies.
Protocols differ between the studies behind these lines. Converted amounts (≈) assume the structure as drawn.

SMILES | organism | assay | system | conditions | how to read | endpoint | value
CC1(CCCCCCCCCCCCOCCCOP(=O)(O)CO[C@H](CO)Cn2ccc(N)nc2=O)COC1 | human alphaherpesvirus 2 |  | HFF, G |  | relative to: CC50 over EC50 | selectivity index | > 172
CCOC(=O)C(CC)NC(=O)CN1C(=O)S/C(=C\c2ccc([N+](=O)[O-])cc2)C1=O (centres unmarked) | Leishmania major | parasite growth |  | 24 h, intracellular, amastigote |  | IC50 | > 10 µM
c1ccc(CN2CCOCCOCCN(CCCCCCCCCCCCCCN3CCOCCOCCN(CCCCCCCCCCCCCCN4CCOCCOCCN(Cc5ccccc5)CCOCCOCC4)CCOCCOCC3)CCOCCOCC2)cc1 | Escherichia coli | tetracycline MIC, checkerboard | tetracycline-resistant (pBR322) | 1/2 MIC, added: tetracycline | relative to: MIC alone over combination | fold enhancement | 4 fold
CN(C)c1cc(CN2CCOCC2)c(O)c2c1C[C@H]1C[C@H]3[C@H](N(C)C)C(O)=C(C(N)=O)C(=O)[C@@]3(O)C(O)=C1C2=O | Enterococcus faecalis |  | JH2-2(pMV158), Tet L efflux |  |  | MIC | 2 µg/mL (≈ 3.59 µM)
CC(=O)[O-].O.O.O.O.[Mn+2].[O-]c1ccc(Br)cc1C=NCCN1CCOCC1 | Mucor indicus |  |  | 20 µL of 100 µM per disc |  | inhibition zone diameter | 12 mm
CCCCCCCCCc1nc2cc(Cl)ccc2c(=O)n1CCCN | Pseudomonas aeruginosa, Staphylococcus aureus |  | mixed biofilm | concentration not given, added: tobramycin after pretreatment |  | biofilm remaining | < 5%
CC(=O)NCc1cc(N(C)C)c2c(c1O)C(=O)C1=C(O)[C@]3(O)C(=O)C(C(N)=O)=C(O)[C@@H](N(C)C)[C@@H]3C[C@@H]1C2 | Enterococcus faecalis |  | JH2-2(pMV158), Tet L efflux |  |  | MIC | 4 µg/mL (≈ 7.57 µM)
Oc1c(Br)cc(Br)c2nc3cc(SC(F)(F)F)ccc3nc12 | Enterococcus | Calgary Biofilm Device | VRE 700221 | biofilm |  | MBC | 0.15 µM (≈ 0.0681 µg/mL)

A few entries again:
SMILES | organism | assay | system | conditions | how to read | endpoint | value
CN(C)c1cc(CN2CCOCC2)c(O)c2c1C[C@H]1C[C@H]3[C@H](N(C)C)C(O)=C(C(N)=O)C(=O)[C@@]3(O)C(O)=C1C2=O | Enterococcus faecalis |  | JH2-2(pMV158), Tet L efflux |  |  | MIC | 2 µg/mL (≈ 3.59 µM)
